Measurements of several laboratories.
Protocols differ between the studies behind these lines. ± gives the spread as reported.

For `O=C(Cc1cccc(OC(F)(F)F)c1)Nc1ccc(CCCCc2nnc(NC(=O)Cc3ccccn3)s2)nn1`, the Tmax was 1 h (human patients, plasma; oral, 150 mg three times daily fasted, cycle 1 day 15 steady state).
`O=C(c1cccnc1-c1ccncc1)N1CCC(O)(Cc2ccccc2)CC1` gave a tmax of 0.42 h (healthy human, plasma; oral, 300 mg once daily, day 1).
For `CNC(=O)c1ccc(-c2cnc3ncc(Cc4ccc5ncccc5c4)n3n2)cc1F`, the Tmax (median) was 1.5 h (human, severe hepatic impairment (Child-Pugh C), plasma; oral, 200 mg single dose).
The tmax difference of `CCOc1cc([C@@H](CS(C)(=O)=O)N2C(=O)c3cccc(NC(C)=O)c3C2=O)ccc1OC` is reported as 0.74 h (healthy human, male, plasma; oral, 20 mg, together with: ketoconazole multiple-dose; relative to: compound alone).
The Tmax (median) of `Cc1c(Cl)c(C)[n+]([O-])c(Cl)c1-c1noc(-c2cc(O)c(O)c([N+](=O)[O-])c2)n1` is reported as 2 h (LC-MS/MS; healthy male human, fasted, plasma; oral, 50 mg single dose, tablet).
`COc1ccc2nc([S@@+]([O-])Cc3ncc(C)c(OC)c3C)[nH]c2c1` has a Tmax of 0.17 ± 0.29 h (HPLC; human CYP2C19 ultra-rapid metabolizers, plasma; oral, 40 mg/day, day 5, pantoprazole).
For `CCCCCCCC(=O)N[C@H](CN1CCCC1)[C@H](O)c1ccc2c(c1)OCCO2`, the tmax was 3 h (human healthy adults, plasma; oral, 84 mg twice daily, median, together with: paroxetine 30 mg daily).
`C=CC(=O)Nc1cc(Nc2ncc(C(=O)OC(C)C)c(-c3cn(C)c4ccccc34)n2)c(OC)cc1N(C)CCN(C)C` has a Tmax difference of 2 h (humans; oral, 160 mg, together with: rifampin; relative to: compound alone).
For `CS(=O)(=O)Nc1ccc(C(=O)O[C@@H](Cc2c(Cl)c[n+]([O-])cc2Cl)c2ccc(OC(F)F)c(OCC3CC3)c2)cc1OCC1CC1`, the tmax was 2 h (human, plasma; inhaled, 1200 µg once daily, day 7, single-dose dry powder inhaler).
With `CCOc1cc([C@@H](CS(C)(=O)=O)N2C(=O)c3cccc(NC(C)=O)c3C2=O)ccc1OC` the tmax was 2 h (human, plasma; oral, 30 mg twice daily, steady state, median, together with: methotrexate).
With `COc1ccnc(C[S+]([O-])c2nc3ccc(OC(F)F)cc3[nH]2)c1OC` (stereo not shown) the Tmax was 4 h (HPLC; human CYP2C19 intermediate metabolizers, plasma; oral, 40 mg/day, day 5, esomeprazole).
`CC[C@H](C)[C@H](NC(=O)[C@H](CC(C)C)NC(=O)[C@H](Cc1c[nH]c2ccccc12)NC(=O)[C@H](C)NC(=O)[C@@H](NC(=O)[C@H](Cc1ccccc1)NC(=O)[C@H](CC(=O)O)NC(=O)[C@H](CCCNC(=N)N)NC(=O)[C@H](C)NC(=O)[C@H](C)NC(=O)[C@H](CC(C)C)NC(=O)[C@H](C)NC(=O)[C@H](CC(=O)O)NC(=O)[C@H](CC(C)C)NC(=O)[C@@H](NC(=O)[C@@H](NC(=O)[C@H](C)NC(=O)[C@H](CC(C)C)NC(=O)[C@H](CCC(=O)O)NC(=O)[C@H](CO)NC(=O)[C@H](CO)NC(=O)[C@H](Cc1ccccc1)NC(=O)[C@@H](NC(=O)CNC(=O)[C@H](CCC(=O)O)NC(=O)CNC(=O)[C@@H](N)Cc1cnc[nH]1)[C@@H](C)O)[C@@H](C)O)[C@@H](C)CC)[C@@H](C)CC)C(=O)N[C@@H](C)C(=O)N[C@H](C(=O)N[C@@H](CCCCN)C(=O)N[C@H](C(=O)N[C@H](C(=O)N[C@@H](CC(=O)O)C(=O)N[C@@H](CCCCN)C(=O)N[C@@H](CCCCN)C(=O)N[C@@H](CCCCN)C(=O)N[C@@H](CCCCN)C(=O)N[C@@H](CCCCN)C(=O)N[C@@H](CCCCN)C(N)=O)[C@@H](C)O)[C@@H](C)CC)[C@@H](C)O` gave a tmax of 0.53 h (healthy human subjects, plasma; subcutaneous, 10 mg once weekly, day 36 after 6 doses, steady state, median).
With `CCOc1c([C@H](C)n2nc(C)c3c(N)ncnc32)cc(Cl)c(F)c1[C@@H]1CNC(=O)C1` the Tmax median was 1 h (healthy fasted humans, plasma; oral, 10 mg).
